Results pooled from the literature.
Compare with care: the assays were run in different laboratories. ± gives the spread as reported.
Cytochrome P450 2A13: Cytochrome P450 2A13 (Homo sapiens, UniProt Q16696)
Sequence of UniProt Q16696 (whole entry, looked up): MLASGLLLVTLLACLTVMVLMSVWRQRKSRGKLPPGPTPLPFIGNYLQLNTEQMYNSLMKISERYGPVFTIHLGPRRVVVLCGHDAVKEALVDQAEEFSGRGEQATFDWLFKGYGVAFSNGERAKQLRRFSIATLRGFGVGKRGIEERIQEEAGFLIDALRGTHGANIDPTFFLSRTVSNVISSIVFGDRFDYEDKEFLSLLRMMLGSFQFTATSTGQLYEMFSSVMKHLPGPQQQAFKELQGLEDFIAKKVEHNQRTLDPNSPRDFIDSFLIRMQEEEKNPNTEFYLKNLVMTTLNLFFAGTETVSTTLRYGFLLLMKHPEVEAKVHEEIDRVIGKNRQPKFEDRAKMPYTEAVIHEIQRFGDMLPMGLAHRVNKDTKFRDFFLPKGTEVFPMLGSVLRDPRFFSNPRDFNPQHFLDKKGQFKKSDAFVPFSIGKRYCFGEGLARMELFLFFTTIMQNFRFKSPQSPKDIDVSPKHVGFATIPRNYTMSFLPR
gag-pol reverse transcriptase: Gag-Pol polyprotein, reverse transcriptase (gag-pol, Human immunodeficiency virus 1, UniProt P03366)
Sequence of UniProt Q01959 (whole entry, looked up): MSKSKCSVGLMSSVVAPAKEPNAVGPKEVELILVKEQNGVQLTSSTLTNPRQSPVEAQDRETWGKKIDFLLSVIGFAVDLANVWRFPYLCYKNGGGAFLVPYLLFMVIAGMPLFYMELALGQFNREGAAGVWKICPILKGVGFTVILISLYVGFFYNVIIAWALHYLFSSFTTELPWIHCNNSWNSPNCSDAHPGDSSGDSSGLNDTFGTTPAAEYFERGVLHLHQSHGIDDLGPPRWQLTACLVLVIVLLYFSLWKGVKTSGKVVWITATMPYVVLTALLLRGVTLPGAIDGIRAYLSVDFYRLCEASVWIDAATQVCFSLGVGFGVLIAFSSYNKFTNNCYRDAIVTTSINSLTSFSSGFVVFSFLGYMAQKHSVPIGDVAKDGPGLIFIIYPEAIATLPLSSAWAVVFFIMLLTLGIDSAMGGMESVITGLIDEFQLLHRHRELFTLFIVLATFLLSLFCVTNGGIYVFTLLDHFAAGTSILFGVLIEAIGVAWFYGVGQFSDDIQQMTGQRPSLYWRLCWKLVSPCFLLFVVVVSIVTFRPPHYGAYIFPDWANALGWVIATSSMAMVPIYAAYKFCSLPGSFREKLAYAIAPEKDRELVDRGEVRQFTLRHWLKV
Sequence of UniProt Q9UKF6 (whole entry, looked up): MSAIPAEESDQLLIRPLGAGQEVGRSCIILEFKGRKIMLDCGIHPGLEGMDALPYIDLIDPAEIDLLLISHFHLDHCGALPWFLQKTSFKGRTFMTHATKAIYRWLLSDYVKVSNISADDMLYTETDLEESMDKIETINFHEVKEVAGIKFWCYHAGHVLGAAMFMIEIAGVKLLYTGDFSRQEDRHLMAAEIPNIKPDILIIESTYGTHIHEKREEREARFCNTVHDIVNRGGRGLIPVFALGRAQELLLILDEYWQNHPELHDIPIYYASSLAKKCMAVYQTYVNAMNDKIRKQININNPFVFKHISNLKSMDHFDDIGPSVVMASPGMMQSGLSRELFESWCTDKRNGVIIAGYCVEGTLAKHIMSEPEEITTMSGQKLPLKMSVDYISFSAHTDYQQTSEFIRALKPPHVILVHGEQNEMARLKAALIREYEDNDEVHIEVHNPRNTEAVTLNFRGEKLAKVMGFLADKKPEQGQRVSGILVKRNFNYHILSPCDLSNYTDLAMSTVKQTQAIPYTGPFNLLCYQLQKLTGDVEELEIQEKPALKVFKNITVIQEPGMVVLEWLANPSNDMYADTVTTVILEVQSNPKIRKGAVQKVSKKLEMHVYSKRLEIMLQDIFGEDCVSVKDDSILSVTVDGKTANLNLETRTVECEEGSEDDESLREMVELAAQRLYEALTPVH
Sequence of UniProt Q9NZQ7 (whole entry, looked up): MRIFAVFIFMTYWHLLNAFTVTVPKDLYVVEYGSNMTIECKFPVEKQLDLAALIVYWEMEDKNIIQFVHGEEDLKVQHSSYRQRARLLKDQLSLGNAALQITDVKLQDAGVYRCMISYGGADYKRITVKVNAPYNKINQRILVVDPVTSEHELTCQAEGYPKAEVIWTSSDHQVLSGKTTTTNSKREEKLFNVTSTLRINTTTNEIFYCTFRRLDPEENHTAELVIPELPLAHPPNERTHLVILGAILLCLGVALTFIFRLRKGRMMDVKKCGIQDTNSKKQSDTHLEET
Sequence of UniProt P00772 (whole entry, looked up): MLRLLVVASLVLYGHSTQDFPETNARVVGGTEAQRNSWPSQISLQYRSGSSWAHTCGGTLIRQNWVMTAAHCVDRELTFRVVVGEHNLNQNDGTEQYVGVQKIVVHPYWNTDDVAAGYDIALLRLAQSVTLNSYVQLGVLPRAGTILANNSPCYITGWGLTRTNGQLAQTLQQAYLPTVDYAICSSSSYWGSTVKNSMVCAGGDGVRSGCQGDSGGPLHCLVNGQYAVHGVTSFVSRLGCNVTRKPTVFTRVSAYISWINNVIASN
Sequence of UniProt P21397 (whole entry, looked up): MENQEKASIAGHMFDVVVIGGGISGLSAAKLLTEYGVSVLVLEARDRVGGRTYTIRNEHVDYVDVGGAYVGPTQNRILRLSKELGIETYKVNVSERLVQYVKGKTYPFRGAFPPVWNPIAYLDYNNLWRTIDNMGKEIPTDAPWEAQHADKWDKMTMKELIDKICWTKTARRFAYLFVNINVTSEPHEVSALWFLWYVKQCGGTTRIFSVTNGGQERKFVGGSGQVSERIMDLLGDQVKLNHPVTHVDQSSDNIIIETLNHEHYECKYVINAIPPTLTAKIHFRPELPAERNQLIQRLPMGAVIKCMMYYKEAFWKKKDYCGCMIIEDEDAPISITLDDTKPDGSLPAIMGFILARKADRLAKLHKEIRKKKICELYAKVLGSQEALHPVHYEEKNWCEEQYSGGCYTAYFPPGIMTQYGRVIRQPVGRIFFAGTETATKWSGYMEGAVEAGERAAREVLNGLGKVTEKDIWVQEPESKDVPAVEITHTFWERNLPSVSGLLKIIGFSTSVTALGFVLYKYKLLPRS
Sequence of UniProt P41597 (whole entry, looked up): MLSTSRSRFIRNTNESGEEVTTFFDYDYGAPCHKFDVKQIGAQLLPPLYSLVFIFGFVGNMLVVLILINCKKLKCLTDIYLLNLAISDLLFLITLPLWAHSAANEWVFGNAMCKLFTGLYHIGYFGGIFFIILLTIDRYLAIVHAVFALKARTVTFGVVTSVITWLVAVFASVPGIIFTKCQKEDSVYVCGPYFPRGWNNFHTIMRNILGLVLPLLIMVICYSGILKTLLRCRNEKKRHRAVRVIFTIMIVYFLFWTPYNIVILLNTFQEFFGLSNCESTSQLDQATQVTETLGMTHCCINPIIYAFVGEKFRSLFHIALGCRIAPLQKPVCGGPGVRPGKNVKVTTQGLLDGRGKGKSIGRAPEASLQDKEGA
Sequence of UniProt P11229 (whole entry, looked up): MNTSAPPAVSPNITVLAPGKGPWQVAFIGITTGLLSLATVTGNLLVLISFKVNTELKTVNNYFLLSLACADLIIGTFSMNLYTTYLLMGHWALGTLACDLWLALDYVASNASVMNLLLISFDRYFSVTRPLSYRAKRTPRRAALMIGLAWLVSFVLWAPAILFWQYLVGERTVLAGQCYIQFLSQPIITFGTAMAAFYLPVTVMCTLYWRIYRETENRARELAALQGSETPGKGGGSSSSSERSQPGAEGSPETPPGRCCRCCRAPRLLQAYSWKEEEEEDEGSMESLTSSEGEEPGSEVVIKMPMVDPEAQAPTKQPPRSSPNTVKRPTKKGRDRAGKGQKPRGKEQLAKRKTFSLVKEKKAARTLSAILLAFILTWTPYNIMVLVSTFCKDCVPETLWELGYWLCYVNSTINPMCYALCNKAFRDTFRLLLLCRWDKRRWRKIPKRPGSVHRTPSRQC

Structure (SMILES)	target	assay	system	setting	IC50
CC[C@H](C)[C@H](NC(=O)[C@H](CC(N)=O)NC(=O)[C@H](CO)NC(=O)[C@@H](NC(=O)[C@H](CCCCN)NC(=O)[C@@H](NC(=O)[C@H](Cc1ccc(O)cc1)NC(=O)[C@H](CC(=O)O)NC(=O)[C@@H](N)CO)C(C)C)C(C)C)C(=O)O	Uncharacterized protein (Equus caballus, UniProt Q38RB9)	peptide binding, competitor, competitive radioligand binding	purified horse MHC class I	pH 7	0.00066 µM
CNC(C)Cc1ccc2nonc2c1 (centres unmarked)	SLC6A3 (Homo sapiens, UniProt Q01959)				4 ± 1.5 µM
CN(C)c1nc(N)c(C(=O)NC(=N)N)nc1Cl	Genome polyprotein, 3D RNA polymerase (Coxsackievirus B3, UniProt P03313)	RNA polymerase activity, inhibitor, single AMP incorporation		Mg2+ preincubation	424 ± 31 µM
C/C1=C/C(=O)O[C@@H]2C[C@@H](CC[C@H](C)/C=C\C=C\CC1)O[C@@](OC(=O)c1ccccc1)([C@@H]1CSC(=O)N1)C2	Actin, alpha skeletal muscle, pyrene-labeled (ACTA1, Oryctolagus cuniculus, UniProt P68135)	actin polymerization, pyrene actin			0.466 ± 0.051 µM
CC#Cc1cc2cccc3ccc4cccc1c4c32	Cytochrome P450 2A13	enzyme activity, inhibitor		20 min, pH 7.4	> 180 µM
COc1ncccc1-c1cnn2ccc(N3CCN(C(=O)OC(C)C)CC3)nc12	MAOA (Homo sapiens, UniProt P21397)	liability screen			> 30 µM
C[N+]1(C)CCC(OC(=O)C(c2ccccc2)c2ccccc2)CC1	CHRM1 (Homo sapiens, UniProt P11229)	inhibitor		human, concurrent measurement	0.00467 µM
CN1CCN(CCOc2c(Cl)cc(C(=O)N[C@@H](Cc3ccccc3)C(=O)O)c(O)c2Cl)CC1	CPSF3 (Homo sapiens, UniProt Q9UKF6)	pre-mRNA cleavage, inhibitor	HeLa nuclear extract	added: Chimera_2 substrate	89.6 µM
O=C1CSC(c2ccc(F)cc2)N1c1nc(-c2ccc(S(=O)(=O)N3CCOCC3)cc2)cs1 (centres unmarked)	gag-pol reverse transcriptase				> 4 µM
CC[C@H](C)[C@H](NC(=O)[C@H](CCSC)NC(=O)[C@@H](NC(=O)[C@H](Cc1c[nH]c2ccccc12)NC(=O)[C@H](Cc1c[nH]c2ccccc12)NC(=O)CNC(C)=O)C(C)C)C(=O)N[C@@H](Cc1ccccc1)C(N)=O	Programmed cell death 1 ligand 1, with PD-1 (CD274, Homo sapiens, UniProt Q9NZQ7)	PD-1/PD-L1 binding, inhibitor, ELISA			0.57 µM
COc1cc(Nc2ncc(F)c(Nc3ccc4c(n3)NC(=O)C(C)(C)O4)n2)cc(OC)c1OC	CCR2 (Homo sapiens, UniProt P41597)				> 10 µM
CCC[C@H](NC(=O)[C@@H]1[C@H]2CCC[C@H]2CN1C(=O)[C@@H](NC(=O)[C@@H](NC(=O)c1cnccn1)C1CCCCC1)C(C)(C)C)C(=O)C(=O)NC1CC1	CELA1 (Sus scrofa, UniProt P00772)	enzyme activity, inhibitor		added: FP-biotin 1 µM	0.222 µM
O=C1CSC(c2c(F)cccc2Cl)N1c1nc(-c2ccc(S(=O)(=O)N3CCOCC3)cc2)cs1 (centres unmarked)	gag-pol reverse transcriptase				3.15 µM
COc1ccc(-c2cc(=O)c3c(O)cc(O)cc3o2)cc1	Cytochrome P450 2A13	enzyme activity, inhibitor		20 min, pH 7.4	> 200 µM

Some of these lines once more:
Structure (SMILES)	target	assay	system	setting	IC50
CC[C@H](C)[C@H](NC(=O)[C@H](CC(N)=O)NC(=O)[C@H](CO)NC(=O)[C@@H](NC(=O)[C@H](CCCCN)NC(=O)[C@@H](NC(=O)[C@H](Cc1ccc(O)cc1)NC(=O)[C@H](CC(=O)O)NC(=O)[C@@H](N)CO)C(C)C)C(C)C)C(=O)O	Uncharacterized protein (Equus caballus, UniProt Q38RB9)	peptide binding, competitor, competitive radioligand binding	purified horse MHC class I	pH 7	0.00066 µM
